Measurements from different studies.
A part holds a random share of what one study measured. Positions count from the first letter of the parent shown.

Series 1 — method: RNA Bind-n-Seq; form: RNA; medium: in vitro; concentration: 200 nM; notes: whole 134-nt RNA, ends assumed; with: 150 mM KCl; relative to: input library; direction: higher = stronger binding
Target: Fragile X messenger ribonucleoprotein 1, C-terminal low-complexity region (Fmr1, Mus musculus, UniProt P35922)
Shared flanks, not repeated: GGGAGUUCUACAGUCCGACGAUC … UGGAAUUCUCGGGUGUCAAGG
Oligonucleotide | log2 enrichment
UAACUUUAGAGGAGGAUCUGAUGGAUAUGGCAGUGGACGUGGAUUUGGGGAUGGCUAUAAUGGGUAUGGAGGAGGCCCUGGAGGUGGCAA | 0.314
AGUCCUGUGCUACACAUCGUAUGUACCGAAUCGUGUGUGUGUGUGUGUGUGUGUGUGUAAAGUAUUAUGUUACGCCGUUCGGAUCUGCAC | 0.536
GCAGGAAGUAUAAACAAAUGGAAAUGCUUCGGAUAGUGGCAGGGGUGGGGGUUGCUAAGGAAAGGGUGGGAUGGGAGUGGGUAAAGAGUU | 0.392
CUCAAGUCCUGUGCUACACAUCGUAUGUACCGAAUCGGUUGGGUUGGGGUUGGAAAGUAUUAUGUUACGCCGUUCGGAUCUGCACUUCCA | 0.0873
CUCAAGUCCUGUGCUACACAUCGUAUGUACCGAAUCGGGAAGGGAAGGAAGGGAAAGUAUUAUGUUACGCCGUUCGGAUCUGCACUUCCA | 0.254
GUCCUGUGCUACACAUCGUAUGUACCGAAUCGGGCCCCCGGGGCCCCCGGGCCCCCGGAAAGUAUUAUGUUACGCCGUUCGGAUCUGCAC | -1.89
ACCACGCAGGUGGGCAUCUUUGGGAAGUGGGGCAAGGGGGGGAUAGGGAGGGGGGUAACACUUUGGGAACAGGUGGUCCCAGGUCGUUUC | 0.634
ACCAUGCAGGUGGGCAUCUUUGGGAAGUGGGGCAAGGGGGGGAUAGGGAGGUGGGUAACACUUUGGGAACAGGUGGUCCCAGGUCGUUUC | 0.873
UUCUGGUCUGCUCACCAGAGGUUCUUCAAAUACUUAUGCAUAGCAUCCAAAGUUAAAAGGGUUGUGCAACUAGCUCGAGAGGAAAUCAAG | -1.69

Series 2 — target: BIRC6 UBC core domain (UniProt Q9NR09); method: yeast two-hybrid; medium: yeast; notes: mostly zero background; relative to: not given; direction: higher = stronger interaction
B1: TRIM8 RING domain (UniProt Q9BZR9); chain WKNCFEEELICPICLHVFVEPVQLPCKHNFCRGCIGEAWAKDSGLVRCPECNQAYNQKPGLE
B2: ARK2C RING domain (UniProt Q6ZSG1); chain EGEESDTDEKCTICLSMLEDGEDVRRLPCMHLFHQLCVDQWLAMSKKCPICRVDIETQLGAD
B3: RNF25 RING domain (UniProt Q96BH1); chain LTDNNIPHGQCVICLYGFQEKEAFTKTPCYHYFHCHCLARYIQHMEQELKAQGQEQEQERQHATTKQKAVGVQCPVCREPLVYDLASL
B4: TRIM63 RING domain (UniProt Q969Q1); chain PMENLEKQLICPICLEMFTKPVVILPCQHNLCRKCANDIFQAANPYWTSRGSSVSMSGGRFRCPTCRHEVIMDRHGV
B5: TRIM72 RING domain (UniProt Q6ZMU5); chain APGLLHQELSCPLCLQLFDAPVTAECGHSFCRACLGRVAGEPAADGTVLCPCCQAPTRPQALST
B6: MID1 RING domain (UniProt O15344); chain METLESELTCPICLELFEDPLLLPCAHSLCFNCAHRILVSHCATNESVESITAFQCPTCRHVITLSQRGL
Residues (chain): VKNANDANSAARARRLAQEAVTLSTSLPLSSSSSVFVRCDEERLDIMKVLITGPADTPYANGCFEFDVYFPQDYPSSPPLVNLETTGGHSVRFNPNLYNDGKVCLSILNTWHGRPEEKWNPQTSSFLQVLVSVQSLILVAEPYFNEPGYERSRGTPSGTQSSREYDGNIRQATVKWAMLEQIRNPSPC
Molecule | lacZ reporter activity
KTLSRFGIQPCSICLGDAKDPVCLPCDHVHCLRCLRAWFASEQMICPYCLTALPDEFSPA (RNF213 RING domain (UniProt Q63HN8)) | 0
QLRRLQEERTCKVCMDKEVSIVFIPCGHLVVCKDCAPSLRKCPICRSTIKGTVRTF (BIRC3 RING domain (UniProt Q13489)) | 0
B1 (TRIM8 RING domain) | 0
B2 (ARK2C RING domain) | 0
FPEHFVKSISCQICEHILADPVETNCKHVFCRVCILRCLKVMGSYCPSCRYPCFPTDLES (RAG1 RING domain (UniProt P15918)) | 0
B3 (RNF25 RING domain) | 0
B4 (TRIM63 RING domain) | 0
FASPPDSNFVCSVCHGVLKRPARLPCSHIFCKKCILRWLARQKTCPCCRKEVKRKKVVH (RNF151 RING domain (UniProt Q2KHN1)) | 0
DDENSDNSNECVVCLSDLRDTLILPCRHLCLCTSCADTLRYQANNCPICRLPFRALLQIR (MGRN1 RING domain (UniProt O60291)) | 0
B5 (TRIM72 RING domain) | 0
DAIPSLSECQCGICMEILVEPVTLPCNHTLCKPCFQSTVEKASLCCPFCRRRVSSWTRYH (RNF168 RING domain (UniProt Q8IYW5)) | 0
B6 (MID1 RING domain) | 0
VTLSLTLPITCHICLGKVRQPVICINNHVFCSICIDLWLKNNSQCPACRVPITPENPCK (OBI1 RING domain (UniProt Q5W0B1)) | 0

Series 3 — method: DHFR PCA, deep sequencing; medium: yeast; with: (+)-ABA 1.4 µM; relative to: wild-type fitted maximum; direction: higher = stronger binding
Target: ABI1, truncated, D143A, DHFR fusion (Arabidopsis thaliana)
Notes: methotrexate growth selection, single substitutions
Starting sequence: PYL1, truncated, DHFR fusion (Arabidopsis thaliana); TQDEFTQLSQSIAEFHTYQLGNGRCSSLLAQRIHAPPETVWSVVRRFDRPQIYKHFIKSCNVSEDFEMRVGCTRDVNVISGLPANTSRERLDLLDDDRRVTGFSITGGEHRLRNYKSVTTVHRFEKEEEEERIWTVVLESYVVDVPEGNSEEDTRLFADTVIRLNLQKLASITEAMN; partner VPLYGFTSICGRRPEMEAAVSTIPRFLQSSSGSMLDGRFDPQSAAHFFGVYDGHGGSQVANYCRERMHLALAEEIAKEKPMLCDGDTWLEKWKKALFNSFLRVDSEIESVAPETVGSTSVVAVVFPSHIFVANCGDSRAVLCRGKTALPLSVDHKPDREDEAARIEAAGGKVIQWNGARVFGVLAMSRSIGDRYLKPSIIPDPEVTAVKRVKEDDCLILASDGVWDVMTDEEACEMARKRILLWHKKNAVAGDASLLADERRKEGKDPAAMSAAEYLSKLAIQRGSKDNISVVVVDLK
Change | relative binding score [%]
R45V | -18.9
T106F | 56.8
S104W | -4.96
R46T | 6
S104T | 63.9
Y141P | -14.2
V40W | 3.75
P146C | 5.86
D144K | -23.5
R113L | 35.1
Q10A | 83.8
R113I | 31
I79S | 26.7
T154D | -21.3
R155S | 4.54
A158K | -18.3
N77V | 65.6
R155G | -21.1
T106P | -5.06
T119V | 7.88
R45D | -2.9
R24V | 45.9
V121T | 1.08
V161G | -9.87
E89V | -0.0225

Series 4 — target: CCNB2, cyclin fold, Cln2 fusion (human); method: yeast growth competition, sequencing; medium: yeast; notes: weak parent motif; relative to: not given; direction: higher = stronger binding
Starting sequence: REV3L docking peptide (human); PPVIIKYIIINRF; partner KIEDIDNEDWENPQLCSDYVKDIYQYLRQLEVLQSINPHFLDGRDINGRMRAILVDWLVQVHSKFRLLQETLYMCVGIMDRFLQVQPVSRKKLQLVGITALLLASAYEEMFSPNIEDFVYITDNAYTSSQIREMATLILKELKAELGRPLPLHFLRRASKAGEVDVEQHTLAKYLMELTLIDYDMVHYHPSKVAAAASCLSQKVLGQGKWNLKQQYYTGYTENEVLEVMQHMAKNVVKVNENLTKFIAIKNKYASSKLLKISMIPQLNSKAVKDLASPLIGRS
Change | normalised enrichment score
PPVIIKYIIINRA [F13A] | 0.581
PAVIIKYIIINRF [P2A] | 0.951
PPVIIKAIIINRF [Y7A] | 0.369
PPVIIKYIIANRF [I10A] | 0.234
APVIIKYIIINRF [P1A] | 0.521
PPVIIKYIIIARF [N11A] | 0.905
